# Experimental data pooled from the literature.
# A part holds a random share of what one study measured. Positions count from the first letter of the parent shown.

# Set 1
# Target: Prothrombin, mature alpha-thrombin (F2, Homo sapiens, UniProt P00734)
# Method: aptamer microarray, sandwich
# Molecule type: DNA with 2'F-ANA
# Medium: in vitro
# Tested at: 200 nM
# Setting: whole 15-mer aptamer, many near background
# Together with: Cy3 exosite-II aptamer, 400 nM
# Reading: higher = stronger binding
# Strand: GGTTGGTGTGGTTGG
Modification,mean fluorescence intensity
2'F-ANA at 3 4 5 8 9 10 14,48.2 a.u.
2'F-ANA at 2 6 10 13 14,76.9 a.u.
2'F-ANA at 1 2 3 7 8 9 10 11 12 14 15,107 a.u.
2'F-ANA at 1 2 3 4 6 7 11 12 13 14 15,67.1 a.u.
2'F-ANA at 2 3 4 5 8 10 11 15,50.9 a.u.
2'F-ANA at 1 4 6 8 9 10 13,88.2 a.u.
2'F-ANA at 1 6 9 11 15,141 a.u.
2'F-ANA at 2 4 5 6 8 9 13 14,44.1 a.u.
2'F-ANA at 2 4 5 7 8 9 10 11 13 14,48.8 a.u.
2'F-ANA at 1 3 6 7 11 12,407 a.u.
2'F-ANA at 2 6 7 9 10 13 14 15,79.7 a.u.
2'F-ANA at 1 2 3 5 8 10 12 13,55.9 a.u.
2'F-ANA at 1 3 4 5 7 10 11 12 15,77.7 a.u.
2'F-ANA at 1 2 3 6 7 15,215 a.u.
2'F-ANA at 1 3 5 6 7 8 9 12 13 14,97.6 a.u.
2'F-ANA at 3 4 7 12 14 15,472 a.u.
2'F-ANA at 2 3 5 6 7 9 10 12 13 15,55.7 a.u.
2'F-ANA at 2 3 5 6 7 8 9,166 a.u.
2'F-ANA at 2 5 6 7 10 12 13 14,47.2 a.u.
2'F-ANA at 2 3 5 8 10 12 13 14 15,50.1 a.u.
2'F-ANA at 1 2 6 7 10 11 13,47.5 a.u.
2'F-ANA at 1 3 7 12 13,539 a.u.

# Set 2
# Target: RING finger protein unkempt homolog, zinc fingers 1-6, GST-SBP tag (UNK, Homo sapiens, UniProt Q9C0B0, residues 30-357)
# UniProt Q9C0B0, sequence (30-357, looked up): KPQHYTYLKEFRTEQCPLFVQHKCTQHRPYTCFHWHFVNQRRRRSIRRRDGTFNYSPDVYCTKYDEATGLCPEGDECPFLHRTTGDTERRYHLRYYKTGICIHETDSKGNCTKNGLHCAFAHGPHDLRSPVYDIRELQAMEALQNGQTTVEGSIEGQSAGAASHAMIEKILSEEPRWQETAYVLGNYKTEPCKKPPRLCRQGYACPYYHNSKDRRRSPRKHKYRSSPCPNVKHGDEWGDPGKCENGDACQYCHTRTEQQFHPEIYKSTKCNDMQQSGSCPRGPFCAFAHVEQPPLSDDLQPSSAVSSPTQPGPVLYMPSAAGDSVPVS
# Method: RNA Bind-n-Seq
# Molecule type: RNA
# Medium: in vitro
# Tested at: not given
# Setting: RNA with constant flanks, human and mouse sites, ends assumed
# Relative to: input RNA pool
# Reading: higher = stronger binding
# All sequences stand within: GGGAGUUCUACAGUCCGACGAUC … CAACAGAGGAUUGAGCAUCA
Strand,bound/input enrichment
AGAUAUUUUGAAGAAAAAAAAAAUUCAAACAGAUUUAUCAAGGGUAACCAGCUUGGAGUCUAGCAAUUUUGCCAAUGUGCUUACCAAUUUGGGGGCUUGUUUUUCUUCCCUUCCUUACAU,0.357 ratio
ACUAGUGAUUCUAGUGAAGGAAAAACAAAAAGUGUACGGCAUGCGUAUGUCCACAAACCAUAUCUUUACUCAAAAUACUAUAGUGAUUCUGAUGAUGAGCUUACUGUAGAACAACGACGA,0.292 ratio
AGAGGGUAUGUCUCCUGUGCCCUCGGAUGCCCCUACGAGGGGAAGGUCUCCCCGGCUAAAGUUGCUGAGGUUGCCAAGAAGUUGUACUCGAUGGGCUGCUAUGAGAUCUCCCUUGGGGAC,0.18 ratio
UGCUACCUCAUCUACACAGAUGAAACACAGCCCGAAAUGGAACUGUUCCUUAAGGACCAUUCACCUAAACUUAAAAGAAUGUGCGAGACAAUGGGAUAUUUCUUCCUCGCUGUUUAUUUU,0.132 ratio
CCAAGUGAUUCAUUCCAAGGACAGGCAGCCCAGUCUGGUGUUUGGAAUGACGACAGUAUGUUAGGGCCUAGUCAAAAUUUUGAAGCUGAGUCAAUUCAAGAUAAUGCGCAUAUGGCAGAG,0.823 ratio
UACCCGCCAUAUAAUCAGUAUCCCAAUGGGUCAGCCAACGGUUUUGGUGCAGUUAGAAACUUUAGCCCUACUGACUAUUACCAUUCAGAAAUUCCAAACACAAGACCACAUGAAAUUCUG,0.596 ratio
CUGAGUUUGAGGCCGUCCCCGACUCCUUCCUCCCCCUUCCCUCCCCCUUUUUUUUGUUUUCCGUUCCCCUUUCCCCUCCCUUCCCUAUCCCCGACGACCGGAUCCUGAGGAGGCAGCUGC,1.32 ratio
CCUAAGCAGACCUCCUCCUACAACAUCCCUGCCUCUGCCAGCAUCUCUCGGACAUCCAUUAGCAGAUAUGACUCUUCCUUCAGGUACACAGGCAGCCCAGACAGCCUCCGGUCCCGGGUC,1.39 ratio
GGAGGCUGGGAGAUGAUCAGAAAAAUUGGAGACACAUCAGUCAGUUACAAAUAUACCUCAAGAUAUGUGCUGAAGGCUGGCCAGACUGUCACAGUGUGGGCUGCAAAUGCUGGCGUCACA,0.35 ratio
GUGAAAUACGCGUACUACGACACUGAACGCAUCGGAGUUGACCUGAUCAUGAAGACCUGCUUUAGCCCCAACAGAGUGAUUGGACUCUCAAGUGACUUGCAGCAAGUAGGAGGGGCAUCA,0.109 ratio
UAAGAGAUUAUGGCAUUUGAUACUCACCAUGUUAAAAAACGGAACUUCUCUAAUAGUAUUGAUCUUCCUAGAAAGAGGAUCUCUAACUUCACCAGUAAGAACAUGAAGGAGGUUAAGAGA,0.444 ratio

# Set 3
# Target: Sal-like protein 4, full length isoform A (SALL4, Homo sapiens, UniProt Q9UJQ4, residues 1-1053)
# UniProt Q9UJQ4, sequence (whole entry, looked up): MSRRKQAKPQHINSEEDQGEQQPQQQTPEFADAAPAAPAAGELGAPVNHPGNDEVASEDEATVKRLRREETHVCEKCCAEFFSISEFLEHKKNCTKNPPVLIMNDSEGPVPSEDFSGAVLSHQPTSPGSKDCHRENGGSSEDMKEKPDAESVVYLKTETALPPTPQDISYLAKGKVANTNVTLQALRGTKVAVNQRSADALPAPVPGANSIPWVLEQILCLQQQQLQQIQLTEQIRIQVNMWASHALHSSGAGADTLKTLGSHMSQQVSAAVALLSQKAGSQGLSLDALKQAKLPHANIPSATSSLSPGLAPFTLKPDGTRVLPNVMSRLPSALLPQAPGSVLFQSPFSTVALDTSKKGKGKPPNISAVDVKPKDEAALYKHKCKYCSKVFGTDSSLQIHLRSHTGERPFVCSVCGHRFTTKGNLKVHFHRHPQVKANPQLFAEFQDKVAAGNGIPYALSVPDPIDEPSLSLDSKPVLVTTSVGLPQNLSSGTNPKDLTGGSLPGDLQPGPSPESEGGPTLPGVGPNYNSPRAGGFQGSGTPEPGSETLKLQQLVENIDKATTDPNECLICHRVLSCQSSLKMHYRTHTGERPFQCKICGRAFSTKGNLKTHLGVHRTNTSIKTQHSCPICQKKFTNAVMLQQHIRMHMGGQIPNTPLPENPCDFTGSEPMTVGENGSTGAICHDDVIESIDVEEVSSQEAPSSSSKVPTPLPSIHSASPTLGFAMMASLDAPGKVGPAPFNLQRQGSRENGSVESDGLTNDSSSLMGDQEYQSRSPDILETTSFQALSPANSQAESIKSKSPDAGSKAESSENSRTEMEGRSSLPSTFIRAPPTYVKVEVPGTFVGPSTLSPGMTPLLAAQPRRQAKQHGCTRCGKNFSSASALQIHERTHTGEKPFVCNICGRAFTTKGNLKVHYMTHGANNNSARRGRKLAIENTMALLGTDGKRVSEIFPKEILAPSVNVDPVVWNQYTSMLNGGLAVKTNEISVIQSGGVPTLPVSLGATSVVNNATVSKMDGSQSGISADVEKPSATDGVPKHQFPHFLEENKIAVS
# Method: universal PBM
# Molecule type: double-stranded DNA, one strand shown
# Medium: in vitro
# Tested at: 600 nM
# Setting: 8-mer, flanks averaged, mean of replicates
# Reading: higher = stronger binding
Strand,E-score
AATTGAAA,0.286
AAAAGACG,0.102
AAACCGTG,-0.215
CCACGGTC,-0.398
ACAAAAGG,-0.117
AAATACAG,0.265
CTGTCCCA,-0.096
ACCAGCAG,-0.219
CAGGACGA,-0.228
GTTTGTCA,0.107
AATATGCA,0.234
CAGGCCTA,-0.153
CCCCGAGG,-0.393
CCGGTAGG,-0.325
ATGGTGTA,0.155
TCTGCGAA,-0.0253
GCTTATTA,0.323
CTGGATGA,-0.142

# Set 4
# Target: CCND3, cyclin fold, Cln2 fusion (human)
# Method: yeast growth competition, sequencing
# Medium: yeast
# Setting: weak parent motif
# Relative to: not given
# Reading: higher = stronger binding
# Starting sequence: RB1 docking peptide (human); PKPLKKLRFDIEG; partner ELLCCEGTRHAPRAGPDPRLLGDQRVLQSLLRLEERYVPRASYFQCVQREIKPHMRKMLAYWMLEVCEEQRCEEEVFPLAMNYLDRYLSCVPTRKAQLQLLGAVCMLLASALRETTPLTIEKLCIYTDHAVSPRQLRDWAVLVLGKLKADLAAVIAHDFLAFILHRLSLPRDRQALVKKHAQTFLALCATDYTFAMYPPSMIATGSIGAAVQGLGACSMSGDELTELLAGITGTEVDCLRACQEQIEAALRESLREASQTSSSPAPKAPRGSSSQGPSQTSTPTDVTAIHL
Variant,normalised enrichment score
R8C,0.0934
R8Q,0.0348
P3F,0.0907
D10T,0.0341
L4S,0.112
P1A,0.15
L7F,0.0667
L4C,0.0954
K6P,0.0996
K2C,0.119
L4W,0.116
L4M,0.2
K5R F9L,-0.23
L7R,0.142
F9A,0.157
I11M,0.062
K2Y,0.12
I11C,0.138
K2E,0.168
L7E,0.0702
L7H,0.0905
P3Q,0.0812
K6G,0.154
P3D,0.213
F9W,0.129

# Set 5
# Target: Interferon regulatory factor 7, full length, phosphomimetic (IRF7, Homo sapiens, UniProt Q92985, residues 1-503, S471D/S472D/S475D/S476D/S477D/S483D/S484D/S487D)
# Method: protein-binding microarray
# Molecule type: double-stranded DNA, one strand shown
# Medium: in vitro
# Tested at: 2200 nM top
# Setting: 60-bp whole probe
# Together with: salmon DNA 0.4 mg/ml
# Relative to: random background probes
# Reading: higher = stronger binding
# All sequences stand within: GCCTAGCAC … GTCTTGATTCGCTTGACGCTGCTG
# Target sequence (chain): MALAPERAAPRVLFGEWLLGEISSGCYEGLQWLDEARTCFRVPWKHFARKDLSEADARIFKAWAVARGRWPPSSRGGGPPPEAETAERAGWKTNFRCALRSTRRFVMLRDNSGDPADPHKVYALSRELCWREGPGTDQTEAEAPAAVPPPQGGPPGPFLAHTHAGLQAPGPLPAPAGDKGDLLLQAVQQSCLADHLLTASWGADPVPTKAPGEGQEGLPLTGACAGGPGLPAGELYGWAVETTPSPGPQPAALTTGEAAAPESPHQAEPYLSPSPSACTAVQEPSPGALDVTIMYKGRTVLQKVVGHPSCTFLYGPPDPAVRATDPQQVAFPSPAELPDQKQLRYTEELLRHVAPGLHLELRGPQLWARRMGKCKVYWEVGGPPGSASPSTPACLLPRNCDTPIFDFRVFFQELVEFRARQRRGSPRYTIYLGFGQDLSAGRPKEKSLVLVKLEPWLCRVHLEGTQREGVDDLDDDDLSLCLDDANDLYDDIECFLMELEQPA
Strand,fitted relative affinity
GACGGTATCCTTCACCTGACGTGCTAG,0.951 z-score
TCATCATTGCCTATTTTTCCGTGCTAG,1.7 z-score
TTAGGTCTCGGTCTCGGCTAGTGCTAG,0.302 z-score
TTGTTTTACAATTTGCTTTAGTGCTAG,2.11 z-score
GACGGTTTCGGGACTGGGCACGTGCTA,3.37 z-score
GACGGTTTCGGGTATTGGGACGTGCTA,5.44 z-score
TTAGGACTGGACTATTGGTTAGTGCTA,-0.487 z-score
TCTACAATGGCTTTGCCTTTGTGCTAG,-0.0162 z-score
GGGCCTAGCCATTATGAGTCTGTGCTA,-1.19 z-score
TTAGGTTTCGACTTTTGGTTAGTGCTA,5.08 z-score
GACGGCCTGGGACTGGGGACGTGCTAG,-1.26 z-score
TTAGGTTTCGGATTTCGGTTAGTGCTA,7.62 z-score
CGGATGATCTCTCTGGGCAAGTGCTAG,-0.411 z-score
TTATGTATCGGGACTGGGTTAGTGCTA,0.209 z-score
TTAGGTATCGGTCTCGGTTGGTGCTAG,0.962 z-score
GACGGTATTCTACTGCTGACGTGCTAG,0.625 z-score
TGATCTCTGGTCTTTGTCAGGTGCTAG,0.994 z-score
TAAGGACTGGGACTGGGTTAGTGCTAG,-0.74 z-score
TTAGAATTCAGTCTCGATTAGTGCTAG,0.16 z-score
TTGGATATCAGTCTCGATTAGTGCTAG,0.596 z-score
GCACTGTGCCTGCTGCCCTTGTGCTAG,0.373 z-score
GACGGTCTCGGTTTCGAGACGTGCTAG,2.88 z-score
TCAGGTCTCCTTCTCCTTTAGTGCTAG,1.44 z-score
TTAGGACTGGACTCTCGGTTAGTGCTA,-0.258 z-score

# Set 6
# Target: Histone acetyltransferase KAT6A, winged helix 1, GST fusion (KAT6A, Homo sapiens, UniProt Q92794, residues 1-85)
# Method: protein binding microarray
# Molecule type: double-stranded DNA, one strand shown
# Medium: in vitro
# Tested at: not given
# Setting: 8-mer, flanks averaged, mean of 2 arrays, mostly near background
# Relative to: not given
# Reading: higher = stronger binding
# Construct (chain): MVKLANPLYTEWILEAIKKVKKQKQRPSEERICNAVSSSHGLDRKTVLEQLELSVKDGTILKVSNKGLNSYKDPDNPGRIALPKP
Strand,E-score
CTTTTTCC,0.0425
GAATAACA,-0.162
GTCTCGAA,-0.213
TGATGTAA,-0.119
AACGTGAC,-0.0246
ACATTTCT,-0.131
GTTTGTCA,-0.0839
CTCCGGCA,0.132
GAGGTGCA,-0.0122
AATATAGT,-0.0286
GAACAGCC,-0.0139
AACTGAAT,-0.129
ACCGGCCC,0.308
CTACCGGA,0.0669
ATCTCAAT,-0.147
ACGCTCTA,0.116
CAAGATGG,-0.209
CGCAGTAG,0.131
AGTTGATG,-0.182
AGTCTACA,-0.137
CTATACTC,0.0587
ATGACCTA,-0.138
CGGAACCC,0.265
AAGGTGTA,0.0161
CTGAGACA,-0.306

# Repeated from above (set 4):
Variant,normalised enrichment score
K5R F9L,-0.23
R8Q,0.0348
L4C,0.0954
I11C,0.138
L4M,0.2
K2C,0.119
L7F,0.0667
P3F,0.0907
P1A,0.15
L4S,0.112
L7E,0.0702
K2E,0.168
L7R,0.142
